Published values gathered from unrelated publications.
Each numbered part is a random draw from the data of one study; scales do not carry over between parts. Values joined by “and” are separate records of one study, mostly repeats; a detail may differ. ± gives the spread as reported.
Chain of UniProt Q00526 (whole entry, looked up): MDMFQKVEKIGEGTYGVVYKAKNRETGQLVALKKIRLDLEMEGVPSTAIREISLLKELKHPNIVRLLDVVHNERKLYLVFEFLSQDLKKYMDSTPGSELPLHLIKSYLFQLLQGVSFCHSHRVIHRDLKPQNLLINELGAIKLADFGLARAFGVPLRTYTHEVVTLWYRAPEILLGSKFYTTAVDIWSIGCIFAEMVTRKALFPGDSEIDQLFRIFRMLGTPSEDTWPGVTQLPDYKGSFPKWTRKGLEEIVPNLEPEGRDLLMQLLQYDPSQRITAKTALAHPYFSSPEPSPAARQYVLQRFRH
Chain of UniProt P54646 (whole entry, looked up): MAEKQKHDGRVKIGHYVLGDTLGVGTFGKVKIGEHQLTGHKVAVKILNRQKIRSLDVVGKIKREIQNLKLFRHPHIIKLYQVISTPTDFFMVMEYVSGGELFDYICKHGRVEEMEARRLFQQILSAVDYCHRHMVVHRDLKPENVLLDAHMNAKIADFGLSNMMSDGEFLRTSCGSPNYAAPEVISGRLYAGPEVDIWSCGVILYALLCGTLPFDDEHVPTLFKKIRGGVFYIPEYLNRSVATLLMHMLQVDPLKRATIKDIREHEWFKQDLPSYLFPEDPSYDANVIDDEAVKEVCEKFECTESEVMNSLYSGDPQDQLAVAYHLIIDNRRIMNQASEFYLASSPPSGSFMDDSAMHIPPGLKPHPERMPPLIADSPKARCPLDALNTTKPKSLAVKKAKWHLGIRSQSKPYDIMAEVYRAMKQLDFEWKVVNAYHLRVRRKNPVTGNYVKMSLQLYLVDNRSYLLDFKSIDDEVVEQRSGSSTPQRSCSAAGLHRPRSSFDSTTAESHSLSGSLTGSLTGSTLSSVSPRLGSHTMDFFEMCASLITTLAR
Chain of UniProt P41240 (whole entry, looked up): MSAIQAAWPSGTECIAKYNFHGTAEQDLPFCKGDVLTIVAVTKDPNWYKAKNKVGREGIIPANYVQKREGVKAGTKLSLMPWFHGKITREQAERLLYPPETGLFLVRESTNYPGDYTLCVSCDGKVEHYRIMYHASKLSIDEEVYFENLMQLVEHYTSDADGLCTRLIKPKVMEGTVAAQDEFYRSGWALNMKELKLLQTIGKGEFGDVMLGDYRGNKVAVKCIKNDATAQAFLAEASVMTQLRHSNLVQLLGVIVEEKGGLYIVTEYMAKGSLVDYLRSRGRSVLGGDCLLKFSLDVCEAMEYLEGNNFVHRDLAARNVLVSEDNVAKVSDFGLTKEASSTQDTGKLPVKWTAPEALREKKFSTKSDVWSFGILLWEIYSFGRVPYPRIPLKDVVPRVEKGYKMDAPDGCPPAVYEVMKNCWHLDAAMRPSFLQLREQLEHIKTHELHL
Chain of UniProt Q96D53 (whole entry, looked up): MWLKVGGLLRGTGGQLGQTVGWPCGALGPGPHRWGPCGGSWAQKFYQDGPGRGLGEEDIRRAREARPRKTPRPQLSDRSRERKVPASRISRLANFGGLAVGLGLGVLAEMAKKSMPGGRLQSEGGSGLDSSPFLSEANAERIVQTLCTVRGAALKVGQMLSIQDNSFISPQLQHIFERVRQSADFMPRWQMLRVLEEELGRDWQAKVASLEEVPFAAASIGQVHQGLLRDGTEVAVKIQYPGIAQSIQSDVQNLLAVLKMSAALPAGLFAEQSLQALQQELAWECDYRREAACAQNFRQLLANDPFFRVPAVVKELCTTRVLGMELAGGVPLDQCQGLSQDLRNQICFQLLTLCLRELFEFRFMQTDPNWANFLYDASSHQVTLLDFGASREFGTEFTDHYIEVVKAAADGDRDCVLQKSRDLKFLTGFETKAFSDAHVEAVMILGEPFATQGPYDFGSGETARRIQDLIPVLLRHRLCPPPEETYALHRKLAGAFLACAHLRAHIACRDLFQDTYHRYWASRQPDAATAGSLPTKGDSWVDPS
Chain of UniProt Q9Y2H9 (whole entry, looked up): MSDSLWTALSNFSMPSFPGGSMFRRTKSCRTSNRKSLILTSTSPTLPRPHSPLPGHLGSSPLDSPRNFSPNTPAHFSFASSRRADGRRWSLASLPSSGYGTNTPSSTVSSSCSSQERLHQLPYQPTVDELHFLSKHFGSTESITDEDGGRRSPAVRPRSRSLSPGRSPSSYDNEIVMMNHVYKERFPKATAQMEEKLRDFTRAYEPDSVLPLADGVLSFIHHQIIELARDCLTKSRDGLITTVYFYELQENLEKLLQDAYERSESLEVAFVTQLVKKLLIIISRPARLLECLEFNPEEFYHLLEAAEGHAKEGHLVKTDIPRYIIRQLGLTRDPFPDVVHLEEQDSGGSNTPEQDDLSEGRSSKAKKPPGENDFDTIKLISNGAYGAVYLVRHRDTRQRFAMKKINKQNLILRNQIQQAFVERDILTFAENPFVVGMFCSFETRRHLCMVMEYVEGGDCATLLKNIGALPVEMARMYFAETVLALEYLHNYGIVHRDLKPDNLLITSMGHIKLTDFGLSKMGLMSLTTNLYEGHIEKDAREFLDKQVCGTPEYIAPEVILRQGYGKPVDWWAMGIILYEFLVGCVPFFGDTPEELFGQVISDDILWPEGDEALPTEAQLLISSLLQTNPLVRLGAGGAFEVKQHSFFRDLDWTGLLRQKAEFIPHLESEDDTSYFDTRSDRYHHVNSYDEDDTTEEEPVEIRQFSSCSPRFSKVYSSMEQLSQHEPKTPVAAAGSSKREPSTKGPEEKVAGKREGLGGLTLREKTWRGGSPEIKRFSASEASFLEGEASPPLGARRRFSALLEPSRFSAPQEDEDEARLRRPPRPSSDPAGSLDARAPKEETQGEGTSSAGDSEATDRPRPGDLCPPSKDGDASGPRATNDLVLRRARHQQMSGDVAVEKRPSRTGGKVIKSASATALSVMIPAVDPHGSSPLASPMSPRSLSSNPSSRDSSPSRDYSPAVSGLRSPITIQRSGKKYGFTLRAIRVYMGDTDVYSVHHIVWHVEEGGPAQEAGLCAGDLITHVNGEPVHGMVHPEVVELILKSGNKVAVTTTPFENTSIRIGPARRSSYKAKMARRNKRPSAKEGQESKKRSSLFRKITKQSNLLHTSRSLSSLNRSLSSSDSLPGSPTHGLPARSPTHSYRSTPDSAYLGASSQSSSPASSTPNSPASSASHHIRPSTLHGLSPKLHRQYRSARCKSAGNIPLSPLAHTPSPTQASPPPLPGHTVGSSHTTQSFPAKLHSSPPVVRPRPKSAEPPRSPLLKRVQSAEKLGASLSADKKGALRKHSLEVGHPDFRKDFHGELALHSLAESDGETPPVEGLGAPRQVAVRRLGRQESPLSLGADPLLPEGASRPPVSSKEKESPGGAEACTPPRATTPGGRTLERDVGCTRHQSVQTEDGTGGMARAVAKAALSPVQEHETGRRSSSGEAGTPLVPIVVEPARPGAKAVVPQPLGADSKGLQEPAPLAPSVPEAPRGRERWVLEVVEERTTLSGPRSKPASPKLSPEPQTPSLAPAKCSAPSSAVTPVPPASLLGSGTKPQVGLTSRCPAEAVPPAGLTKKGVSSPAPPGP
Chain of UniProt Q15139 (whole entry, looked up): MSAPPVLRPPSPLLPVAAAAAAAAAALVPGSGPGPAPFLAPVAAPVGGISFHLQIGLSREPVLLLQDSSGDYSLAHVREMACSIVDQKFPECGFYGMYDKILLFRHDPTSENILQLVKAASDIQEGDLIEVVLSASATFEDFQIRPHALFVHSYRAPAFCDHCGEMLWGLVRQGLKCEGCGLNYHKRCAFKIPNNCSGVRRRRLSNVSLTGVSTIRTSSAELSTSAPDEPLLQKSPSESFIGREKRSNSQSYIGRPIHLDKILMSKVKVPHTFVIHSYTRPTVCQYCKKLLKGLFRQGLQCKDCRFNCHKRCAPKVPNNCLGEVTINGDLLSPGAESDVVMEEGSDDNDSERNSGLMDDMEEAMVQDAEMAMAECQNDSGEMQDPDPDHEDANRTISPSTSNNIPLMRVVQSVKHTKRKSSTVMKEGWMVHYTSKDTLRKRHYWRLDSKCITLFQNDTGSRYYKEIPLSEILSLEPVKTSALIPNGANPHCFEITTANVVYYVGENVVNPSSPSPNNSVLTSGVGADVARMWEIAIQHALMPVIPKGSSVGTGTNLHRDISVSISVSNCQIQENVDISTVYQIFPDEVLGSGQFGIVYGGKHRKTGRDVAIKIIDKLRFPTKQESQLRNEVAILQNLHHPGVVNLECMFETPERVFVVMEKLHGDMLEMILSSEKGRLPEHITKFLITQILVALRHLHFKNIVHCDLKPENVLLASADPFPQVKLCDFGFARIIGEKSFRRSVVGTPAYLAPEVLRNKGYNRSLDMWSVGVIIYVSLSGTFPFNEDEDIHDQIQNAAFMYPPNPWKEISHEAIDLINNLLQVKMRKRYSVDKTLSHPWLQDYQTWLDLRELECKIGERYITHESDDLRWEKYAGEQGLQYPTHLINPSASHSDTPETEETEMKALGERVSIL
Chain of UniProt P45984 (whole entry, looked up): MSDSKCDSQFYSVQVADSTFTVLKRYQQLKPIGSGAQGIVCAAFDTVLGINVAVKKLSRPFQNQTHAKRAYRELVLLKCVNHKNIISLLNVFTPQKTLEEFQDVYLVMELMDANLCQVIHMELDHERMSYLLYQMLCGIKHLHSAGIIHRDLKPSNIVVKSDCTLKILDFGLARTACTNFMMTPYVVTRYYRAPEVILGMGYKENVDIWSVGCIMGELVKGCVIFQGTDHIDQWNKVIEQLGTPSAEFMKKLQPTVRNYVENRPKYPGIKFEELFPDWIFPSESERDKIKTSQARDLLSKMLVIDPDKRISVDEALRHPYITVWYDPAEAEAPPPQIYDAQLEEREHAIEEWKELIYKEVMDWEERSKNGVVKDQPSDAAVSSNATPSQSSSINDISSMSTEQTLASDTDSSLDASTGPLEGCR

Series 1 — observed: enzyme activity; mode: inhibitor; tested at: 0.5 µM; relative to: control
Target: Tyrosine-protein kinase ZAP-70 (ZAP70, Homo sapiens, UniProt P43403)
Target sequence (P43403 1-619): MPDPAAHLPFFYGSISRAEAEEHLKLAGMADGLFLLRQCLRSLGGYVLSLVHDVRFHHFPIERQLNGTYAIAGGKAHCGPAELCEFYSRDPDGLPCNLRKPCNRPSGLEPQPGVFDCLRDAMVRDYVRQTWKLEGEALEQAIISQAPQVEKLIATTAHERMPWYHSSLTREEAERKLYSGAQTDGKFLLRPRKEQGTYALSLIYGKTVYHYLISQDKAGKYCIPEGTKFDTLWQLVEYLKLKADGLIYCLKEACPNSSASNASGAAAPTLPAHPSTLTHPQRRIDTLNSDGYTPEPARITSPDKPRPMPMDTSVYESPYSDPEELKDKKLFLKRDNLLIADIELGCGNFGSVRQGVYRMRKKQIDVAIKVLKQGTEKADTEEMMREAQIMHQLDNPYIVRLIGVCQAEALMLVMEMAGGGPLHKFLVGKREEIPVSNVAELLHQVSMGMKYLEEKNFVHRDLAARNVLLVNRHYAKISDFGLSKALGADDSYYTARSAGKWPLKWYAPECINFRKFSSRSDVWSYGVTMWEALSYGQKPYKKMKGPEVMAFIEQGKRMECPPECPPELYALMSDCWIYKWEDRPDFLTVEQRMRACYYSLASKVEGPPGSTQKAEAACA
SMILES | remaining activity [%]
NC(=O)c1cccc(-c2cc(Nc3ccc(OC(F)(F)F)cc3)ncn2)c1 | 97.1
O=C(O)/C=C/c1cc(Br)c(Br)c(Br)c1Br | 98.5
COc1cc2c(N3CCN(C(=O)Nc4ccc(OC(C)C)cc4)CC3)ncnc2cc1OCCCN1CCCCC1 | 116
c1cc(-c2cnn3cc(-c4ccc(OCCN5CCCCC5)cc4)cnc23)ccn1 | 94.5
FC(F)(F)c1ccc(/C=C/c2nc(COc3ccc(CCCCn4ccnn4)cc3)co2)cc1 | 115
CC(C)N(CCC(=O)c1ccc2ccccc2c1)Cc1ccccc1 | 93.7

Series 2 — cell line: mouse MPNST tumor cells; technique: high-content immunofluorescence imaging; refers to: nuclear SOX9; tested at: 10 µM; time: 12 h; notes: mean of 2 replicates; relative to: DMSO control; direction: higher = more nuclear SOX9
SMILES | nuclear SOX9 intensity
CN(CC[C@@H](Oc1ccc(-c2ccccc2)cc1)c1ccc(F)cc1)CC(=O)O | 97.4 % of DMSO
Clc1cccc(COc2cncc(N3CCNCC3)n2)c1 | 153 % of DMSO
CN(C)c1nc(N(C)C)nc(N(C)C)n1 | 103 % of DMSO and 97.8 % of DMSO
Cc1ccnc(NS(=O)(=O)c2ccc(N)cc2)n1 | 67.7 % of DMSO

Series 3 — technique: phase 2a trial; species: idiopathic pulmonary fibrosis patients
Structure (SMILES): CC(C)n1cnc(-c2ccc(F)cc2)c1-c1ncc(C(=O)Nc2ccc(N3CCN(C)CC3)cc2)[nH]1
conditions | patients with osteoporosis [%]
60 mg once daily, grade 5 emergent event | 0
all arms pooled, grade 4 emergent event | 0
30 mg once daily, grade 1 emergent event | 0
30 mg once daily, grade 4 emergent event | 0
all arms pooled, grade 2 emergent event | 0
all arms pooled, grade 3 emergent event | 0

Series 4 — observed: cell-free assay; technique: competition with immobilised ligand; tested at: 1 µM
SMILES: CO[C@H]1CC[C@H](CNc2ccc(S(=O)(=O)NC(=O)c3ccc(N4CCN(CC5=C(c6ccc(Cl)cc6)CC(C)(C)CC5)CC4)cc3Oc3cnc4[nH]ccc4c3)cc2[N+](=O)[O-])CC1
target | remaining binding [%]
Ribosomal protein S6 kinase beta-1 (RPS6KB1, Homo sapiens, UniProt P23443) | 86
Proto-oncogene tyrosine-protein kinase receptor Ret (RET, Homo sapiens, UniProt P07949, V804L) | 88
5'-AMP-activated protein kinase catalytic subunit alpha-2 (PRKAA2, Homo sapiens, UniProt P54646) | 93
Serine/threonine-protein kinase mTOR (MTOR, Homo sapiens, UniProt P42345) | 50
Hormonally up-regulated neu tumor-associated kinase (HUNK, Homo sapiens, UniProt P57058) | 100
Serine/threonine-protein kinase D1 (PRKD1, Homo sapiens, UniProt Q15139) | 76
Dual specificity mitogen-activated protein kinase kinase 3 (MAP2K3, Homo sapiens, UniProt P46734) | 92
Microtubule-associated serine/threonine-protein kinase 1 (MAST1, Homo sapiens, UniProt Q9Y2H9) | 96
Serine/threonine-protein kinase ULK3 (ULK3, Homo sapiens, UniProt Q6PHR2) | 80
Serine/threonine-protein kinase SIK3 (SIK3, Homo sapiens, UniProt Q9Y2K2) | 89
Tyrosine-protein kinase CSK (CSK, Homo sapiens, UniProt P41240) | 76
Mitogen-activated protein kinase 9 (MAPK9, Homo sapiens, UniProt P45984) | 82
RAC-gamma serine/threonine-protein kinase (AKT3, Homo sapiens, UniProt Q9Y243) | 100
Atypical kinase COQ8B, mitochondrial (COQ8B, Homo sapiens, UniProt Q96D53) | 100
Cyclin-dependent kinase 3 (CDK3, Homo sapiens, UniProt Q00526) | 100

Further values, each from its own experiment
SMILES | assay | system | conditions | how to read | quantity | result
OCCN1CCN(CCCN2c3ccccc3Sc3ccc(Cl)cc32)CC1 | – | mouse, serum | dose not given | – | serum albumin | 2.3 ± 0.2 mg/dL
COc1ccc(-c2c(Nc3ccccn3)[nH]c3c(C4=CCCCC4)c(-c4ccccc4)nn3c2=O)cc1 | – | human, plasma | oral, 200 mg twice daily | – | apparent volume of distribution | 213000 mL and 365000 mL and 493000 mL
CC(=O)N[C@@H](Cc1c[nH]c2ccccc12)C(=O)N[C@@H](CCC(=O)C=[N+]=[N-])C(=O)OC(C)C | UPLC-MS/MS | EL4 tumor, C57BL/6 CES1-/- mice, tumor | subcutaneous, 0.3 mg/kg DON equivalent daily, 5 days | higher = more metabolite | stachydrine level | 1.81e+07 a.u. and 1.62e+07 a.u. and 1.97e+07 a.u. and 2.13e+07 a.u. and 1.53e+07 a.u. and 2.18e+07 a.u.
